Published values pooled from the literature.
Each numbered part is a random draw from the data of one study; scales do not carry over between parts. Substitutions count along the parent as printed.

Study 1 — technique: universal PBM; form: double-stranded DNA, one strand shown; sample: in vitro; concentration: 600 nM; reading: higher = stronger binding
Target: Sal-like protein 4, full length isoform A (SALL4, Homo sapiens, UniProt Q9UJQ4, residues 1-1053)
Chain of UniProt Q9UJQ4 (whole entry, looked up): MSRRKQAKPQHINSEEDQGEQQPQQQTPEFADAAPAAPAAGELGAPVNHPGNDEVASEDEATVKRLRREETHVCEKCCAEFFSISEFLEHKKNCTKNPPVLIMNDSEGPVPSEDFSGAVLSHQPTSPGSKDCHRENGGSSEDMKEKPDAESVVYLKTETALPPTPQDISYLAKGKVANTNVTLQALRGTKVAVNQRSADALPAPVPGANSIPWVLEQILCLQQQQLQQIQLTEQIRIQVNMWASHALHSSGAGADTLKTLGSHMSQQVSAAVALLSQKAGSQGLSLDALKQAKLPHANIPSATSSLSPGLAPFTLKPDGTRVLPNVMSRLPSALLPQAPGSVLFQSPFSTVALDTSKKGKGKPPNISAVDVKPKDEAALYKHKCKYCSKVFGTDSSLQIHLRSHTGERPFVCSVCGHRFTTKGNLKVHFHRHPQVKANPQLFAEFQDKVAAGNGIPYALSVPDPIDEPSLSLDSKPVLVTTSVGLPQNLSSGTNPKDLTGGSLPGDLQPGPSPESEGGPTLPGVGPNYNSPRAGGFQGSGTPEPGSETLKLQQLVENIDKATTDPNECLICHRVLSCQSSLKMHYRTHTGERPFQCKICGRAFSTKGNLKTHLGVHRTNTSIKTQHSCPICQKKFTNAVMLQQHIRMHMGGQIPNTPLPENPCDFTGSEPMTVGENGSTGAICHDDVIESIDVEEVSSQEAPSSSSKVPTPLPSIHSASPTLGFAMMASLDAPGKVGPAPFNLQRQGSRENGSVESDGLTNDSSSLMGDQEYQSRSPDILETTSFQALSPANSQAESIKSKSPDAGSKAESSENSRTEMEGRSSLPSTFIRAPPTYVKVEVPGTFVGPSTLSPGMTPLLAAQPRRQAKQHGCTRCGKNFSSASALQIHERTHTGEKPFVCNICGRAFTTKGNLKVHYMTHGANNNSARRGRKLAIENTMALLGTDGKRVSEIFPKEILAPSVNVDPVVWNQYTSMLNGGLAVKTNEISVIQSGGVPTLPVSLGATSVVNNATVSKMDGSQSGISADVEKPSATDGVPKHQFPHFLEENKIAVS
Notes: 8-mer, flanks averaged, mean of replicates
| Strand | E-score |
| --- | --- |
| ACCTAAGA | 0.0499 |
| ACTCGAAT | 0.0827 |
| GGAATCCA | -0.0783 |
| GACAAAGA | 0.0895 |
| ACGGTACA | 0.0105 |
| GAGTGCAC | -0.142 |
| CGTATCTC | -0.0984 |
| ACTACGTG | -0.218 |
| AGACTTCA | 0.022 |
| AGGCCTAC | -0.143 |
| CCCCCGAG | -0.261 |
| TCAACACA | 0.191 |
| AGAGCGGG | -0.227 |
| GGAGAGAC | -0.00996 |
| GTACACTA | 0.0777 |
| GATGGACA | -0.0438 |
| ATCTACAT | 0.211 |
| AAATCATT | 0.301 |
| ATAAACTG | 0.271 |
| TCATTCGA | 0.147 |
| CCCACCTA | -0.0501 |
| CTTTGATA | 0.25 |
| ACGGGAAG | 0.0615 |

Study 2 — technique: RNA Bind-n-Seq; form: RNA; sample: in vitro; concentration: 365 nM; reference: no-protein control; reading: higher = stronger binding
Target: RNA binding protein fox-1 homolog 2, RRM domain, GST-SBP tag (RBFOX2, Homo sapiens, UniProt O43251-10, residues 100-194)
Notes: natural RNA segment, single round, ends assumed
All sequences stand within: GGGAGUUCUACAGUCCGACGAUC … UGGAAUUCUCGGGUGCCAA
Residues (chain): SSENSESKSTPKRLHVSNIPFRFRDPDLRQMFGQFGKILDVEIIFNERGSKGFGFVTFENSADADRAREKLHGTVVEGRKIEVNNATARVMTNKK
| Strand | RBNS enrichment (R) |
| --- | --- |
| GGACAGUGAAGAGGGUUGGGGCAAUGGCUCAGCUAUGUAAGUGUGUGUGUGCAGUUCAAUCCCGAGGACUGGAAUUUGGAUCCCACCACACACAUAACAAGCCACAUAUU | 0.835 |
| CUCUUCUGCCAUGUAACUGGAGGAUGUGCUAUGAGUUUGCAAACAGCUGGACUGUCAGGCUGCUUUUUUUCCAGAUGUUCCUCCUCUGCCUCCCCUUCCCCUCCUCUCCC | 2.33 |
| AGAUUGGAUCAUUUCCUUUUGAGUGUUCUUCUCUUUGGUACAAAAGCUAUUGUGGGUGACAGGAGCAGUGUUUUCCUGCUGGACCCGCAAGCCACCAGCUAUUUCCUGGU | 0.299 |
| UCCAUGAAUUAAAUCUGUUUCCUGUGUUAGUCAGUAUUCUUAAAUAAAAUUUAUAAUUGAAACAUGAGUGAAUGUGGACUUUUUUGGUGGAAAUGGUCUUGUUAAAUAAU | 0.828 |
| UCUGCAUUUAGAUAACUAUUAAAGGUUGUUAAGAUGAAGAUUUACUGUUUCUUUGUUACUCGUUGGUACAGCUGUUUGUUUUACUUGCACAUUUGUACAUAUACUUAAUG | 0.329 |
| GUAAAUUGUAUAUUUUUAUGAACUUUUGAAGCACACACUCCUGUUUCCCUCUGUGUAGCUUUGUGGGGAUUUCAUGUAUAUAUGCUGUCUGAAAGAAUCCAGAGGUUGGA | 0.788 |
| UUAAGAAGCUCAUGACCAAGGGCCGCUACUCGCUGGAUGUAUGGAGCUAGGAGCUGCCGCCCCCCACCCCUCGCUCCCUGUAAUCACGUCCUUAACUUCCUUCUGCCGAC | 0.934 |
| GUCUACUAUGUGCCAGGUUCUGGGGAAGCAGGCAGGGUACAGUCACUUUUGGCCAAGGGUCUUGGGUAACAUCCUGGGUUGAAGUUGCCAAGCUUCAUCUUACUGAAAAA | 0.598 |

Study 3 — technique: EMSA with sequencing; form: double-stranded DNA, one strand shown; sample: in vitro; concentration: 10 and 20 nM; reference: negative control set to 0; reading: higher = stronger binding
Target: Hepatocyte nuclear factor 3-alpha (Foxa1, Mus musculus, UniProt P35582, residues 1-468, full length assumed)
Chain of UniProt P35582 (whole entry, looked up): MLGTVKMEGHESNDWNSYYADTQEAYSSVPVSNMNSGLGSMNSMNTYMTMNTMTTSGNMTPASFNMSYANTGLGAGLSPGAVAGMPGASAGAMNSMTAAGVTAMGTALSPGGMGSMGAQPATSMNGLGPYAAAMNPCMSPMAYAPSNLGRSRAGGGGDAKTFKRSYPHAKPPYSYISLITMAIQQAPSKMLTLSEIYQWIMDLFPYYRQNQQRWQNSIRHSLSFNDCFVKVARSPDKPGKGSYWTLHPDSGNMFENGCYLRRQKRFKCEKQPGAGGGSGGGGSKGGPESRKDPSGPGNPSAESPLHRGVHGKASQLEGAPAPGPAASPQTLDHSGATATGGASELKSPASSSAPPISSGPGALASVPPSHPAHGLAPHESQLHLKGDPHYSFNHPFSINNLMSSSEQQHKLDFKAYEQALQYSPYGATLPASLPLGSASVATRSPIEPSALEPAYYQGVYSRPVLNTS
Notes: whole designed probe, mean of two concentrations, ends assumed
All sequences stand within: GTGAGCGGTGCCCATTGATGGGGAAC … TTTCACTGGGATCGTGGGGAC
| Strand | normalised bound fraction |
| --- | --- |
| GTAGGGGTAATGAAAAACTTCTTGTGCAAGCGGCCATTAATCAGCAGTGTAACATTGCATAACGTGCTCCAAAGCACGTGTCATGGGATCAGAGTACTCTGCTGCATAATGCAGGCCAGTGTCTGTGCCTCCTGCTGACCTTTTCCAATGCAGAACTCGAACCATGTGATGCATGCTTCTTGCCAAGTCACTT | -0.0684 ratio |
| TCGGCCAGCCTGGCTTCTGCGCCCCGCCAGGAGGTCGCGGAGCGGAGCGCGGCCAGGAATGACTCATTCAGTGACAGCTCCCCCCACGCTGTTTGTTTATTCATGTCACATTCTCTCCACACACTGGCTCTTCTTTCTTTCGGGAGGAGGGGAGAAAGGAGCGGGAGGGCGGGCGGGCAGGGGAGAGGCAGGC | 0.393 ratio |
| GAATTATTTCATTATACAAATATAAATGTCATTCTTTAATTTTAGAAGAAATCATGATATGTCATTCTATTGAGTGCTAACTAAAAGTTCCCTTTGTTTACTTAGCTTTCTCTTAGTCATAAGAAAGAAGAAGATCTCTTGCGTGAAAACAGCGTGTTGCAGGAAGAAATTGCCATGCTAAGACTGGAACTAG | 0.51 ratio |
| TTAACTGATTGGAACAGTTACTTGGAAACATTAAATTGGTGGCAGAAAAAGTGAAACAATTATAAATGCAATGATCAAAAACAGAAAATAAAAAGTAAACATGAATTTAAGACAATGATCTAATCAAGAAGCAATGAATTCCTGAGTGAATGAGTATAGTGGGAAAAAACAGAGAGGAGTAAATATGGGAGCT | 0.392 ratio |
| TTATTATCTGATTAATTTCCAAATGAATACCAAAAAAAAACATTTAGATAGGCTGTTGTTTGGTCCCAAGTATGTATTTCCATTAAGAGCTTTGTTTACTTTGTTTCTCTTTATACACCATGAACCAACTTCAAAACTTTCATTCATACTGTATCACTCGCTAAGTCACTGTATTTTCAAAAAAGAAATAAGG | 0.482 ratio |

Study 4 — target: CCND1, cyclin fold, Cln2 fusion (human); technique: yeast growth competition, sequencing; sample: yeast; notes: weak parent motif; reference: not given; reading: higher = stronger binding
Parent: CENPC docking peptide (human); VKTKKRLNFDDKV
| Variant | normalised enrichment score |
| --- | --- |
| VKTKRRLNLDDKV [K5R F9L] | 0.0509 |
| VKTKKRANFDDKV [L7A] | 0.147 |
| VKTKKRLNLDDKV [F9L] | 0.0902 |
| VKTKKRLAFDDKV [N8A] | 0.495 |
| VKTAKRLNFDDKV [K4A] | 0.512 |
| VKTKKALNFDDKV [R6A] | 0.122 |
| VKAKKRLNFDDKV [T3A] | 0.528 |
| VKTKKRLNFADKV [D10A] | -0.312 |
| VATKKRLNFDDKV [K2A] | 0.314 |
| VKTKARANFDDKV [K5A L7A] | 0.128 |

Repeated from above (study 1):
| Strand | E-score |
| --- | --- |
| GTACACTA | 0.0777 |
| GATGGACA | -0.0438 |
| ATCTACAT | 0.211 |
| AAATCATT | 0.301 |
| ATAAACTG | 0.271 |
| TCATTCGA | 0.147 |
